# Assay results of several laboratories.
# Protocols differ between the studies behind these lines. Numbers after ± are the reported error.
SMILES,cell line,effect on,method,time,notes,CC50
O=C(NCc1cccc(Cl)c1F)c1cn(Cc2ccc(F)cc2)cc(O)c1=O,HFF,cell growth or viability,MTS,7 days,,> 50 µM
CC(C)=CCC/C(C)=C/CNCCOC1C2CC3CC(C2)CC1C3 (stereo not shown),HEK-293T,cell growth or viability,,,,1.3 µg/mL
CC(C)C[C@@H]1NC(=O)[C@H](CCCCN)NC(=O)[C@H](CC(C)C)NC(=O)[C@@](C)(NC(=O)[C@H](Cc2ccccc2)NC(=O)[C@H](Cc2ccc(O)cc2)NC(=O)[C@H](C)NC(=O)[C@@H](NC(=O)c2ccc3c(c2)C(=O)OC32c3ccc(O)cc3Oc3cc(O)ccc32)[C@@H](C)O)CCCC=CCCC[C@@](C)(C(=O)NCC(=O)N[C@@H](CCCNC(=N)N)C(=O)N[C@@H](Cc2c[nH]c3ccccc23)C(N)=O)NC1=O,MT-4,,,,,> 125 µM
C1CCN(CC23C4CCC5C4C4C(CCC42)C53)CC1,dog cells,cytotoxicity,,3 (unit not given),,150 µM
C=CC1=C(C)c2cc3nc(cc4[nH]c(cc5[nH]c(cc1n2)c(C)c5C=C)c(C)c4CCC(=O)OCc1ccccc1)C(CCC(=O)O)=C3C,dog cells,,,,,198.6 ± 1.62 µM
CC(C)C[C@H](NC(=O)[C@H](CCCCN)NC(=O)[C@@H](NC(=O)[C@H](CCCNC(=N)N)NC(=O)[C@H](Cc1c[nH]c2ccccc12)NC(=O)[C@@H](N)CCCCN)C(C)C)C(=O)N[C@H](C(=O)N[C@@H](C)C(=O)N[C@@H](CCCCN)C(=O)N[C@H](C(=O)N[C@@H](CCCNC(=N)N)C(=O)N[C@@H](Cc1c[nH]c2ccccc12)C(=O)N[C@@H](CCCCN)C(N)=O)C(C)C)[C@@H](C)O,HaCaT,cell viability,,24 h,serum-free medium,69.3 µM
O[Si](CCCN1CCCCC1)(c1ccc(F)cc1)C1CCCCC1 (stereo not shown),BaF3,cell growth or viability,ATP luminescence,72 h,,9.77 µM
CC(=N)N1CC23C4C=CC5C4C4C2C=CC4C53C1,dog cells,cytotoxicity,,3 (unit not given),,52 µM
CC(C)=CCc1c(O)ccc(C(=O)C2C(c3c(O)cc(O)c4c(=O)c(CC=C(C)C)c(-c5ccc(O)cc5O)oc34)C=C(C)CC2c2ccc(O)cc2O)c1O (stereo not shown),"Huh-7, mock-infected",,MTS,4 (unit not given),,18.1 ± 3.8 µM
CN(C)C12C3CCC4C3C3C(CCC31)C42,dog cells,cytotoxicity,,3 (unit not given),,> 100 µM
O=C(NCc1ccc(F)cc1F)c1cn(Cc2ccc(F)cc2)cc(O)c1=O,HFF,cell growth or viability,MTS,7 days,,> 50 µM
C=C1CCC2C(C)(CO)C(O)CCC2(C)C1CC(SC(=S)N1CCN(Cc2cc(F)c(F)cc2F)CC1)C1=CCOC1=O (stereo not shown),HEK-293T,,MTT,24 h,,41 ± 2.62 µM
CN1CC23C4CCC5C4C4C2CCC4C53C1,dog cells,cytotoxicity,,3 (unit not given),,≥ 20 µM
O=C(NCc1cc(F)ccc1F)c1cn(Cc2ccc(F)cc2)cc(O)c1=O,HFF,cell growth or viability,MTS,7 days,,> 50 µM
C=C(C)[C@@H]1CC[C@]2(COS(=O)(=O)c3ccc(C)cc3)CC[C@]3(C)[C@H](CC[C@@H]4[C@@]5(C)CCCNC(C)(C)[C@@H]5CC[C@]43C)[C@@H]12,HFF,cell growth or viability,ATP luminescence,,,3.81 µM
N=C(N)N1CC23C4C=CC5C4C4C2C=CC4C53C1,dog cells,cytotoxicity,,3 (unit not given),,> 100 µM

# Repeated from above:
SMILES,cell line,effect on,method,time,notes,CC50
O[Si](CCCN1CCCCC1)(c1ccc(F)cc1)C1CCCCC1 (stereo not shown),BaF3,cell growth or viability,ATP luminescence,72 h,,9.77 µM
